Experimental data of several laboratories.
Each numbered part is a random draw from the data of one study; scales do not carry over between parts.

Series 1
Target: Histone acetyltransferase KAT6A, both winged helices, GST fusion (KAT6A, Homo sapiens, UniProt Q92794, residues 1-181)
Technique: protein binding microarray
Molecule type: double-stranded DNA, one strand shown
Sample: in vitro
Concentration: not given
Notes: 8-mer, flanks averaged, mean of 2 arrays, mostly near background
Relative to: not given
Direction: higher = stronger binding
Endpoint: E-score
Target sequence (chain): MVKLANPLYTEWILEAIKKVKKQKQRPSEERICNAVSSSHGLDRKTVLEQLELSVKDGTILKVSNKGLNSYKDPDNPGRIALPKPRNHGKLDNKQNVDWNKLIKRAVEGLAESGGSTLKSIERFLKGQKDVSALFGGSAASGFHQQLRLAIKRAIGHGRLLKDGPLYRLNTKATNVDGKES
AGGCTGTG: -0.151
ATGGTGGG: -0.207
TGACGAAA: -0.119
TAACTCAA: -0.122
CACACATA: -0.149
CACCACCA: -0.203
GACGCGGC: 0.305
ACCACGGA: 0.175
CTCTGACC: -0.0914
AAGGAGCA: -0.169
GATCTTAC: -0.0354
ACGGCCGA: 0.336
ACCCCTTG: -0.281
ACCGCACA: 0.109
CACTGCTA: -0.119
AATGTATC: -0.042
CACTGGGA: -0.337
CGGTATAA: 0.111
CGCTAGGA: -0.0488
GGAGAAAA: -0.0915
AGACATTC: 0.018
GATGTCCA: -0.00583
ACCTTGAC: 0.0138
AGTTGCTA: -0.0897
AACAACTC: -0.252

Series 2
Target: Interferon regulatory factor 7, full length, phosphomimetic (IRF7, Homo sapiens, UniProt Q92985, residues 1-503, S471D/S472D/S475D/S476D/S477D/S483D/S484D/S487D)
Technique: protein-binding microarray
Molecule type: double-stranded DNA, one strand shown
Sample: in vitro
Concentration: 2200 nM top
Notes: 60-bp whole probe
Together with: salmon DNA 0.4 mg/ml
Relative to: random background probes
Direction: higher = stronger binding
Endpoint: fitted relative affinity
Constant ends, left off below: GCCTAGCAC … GTCTTGATTCGCTTGACGCTGCTG
Construct (chain): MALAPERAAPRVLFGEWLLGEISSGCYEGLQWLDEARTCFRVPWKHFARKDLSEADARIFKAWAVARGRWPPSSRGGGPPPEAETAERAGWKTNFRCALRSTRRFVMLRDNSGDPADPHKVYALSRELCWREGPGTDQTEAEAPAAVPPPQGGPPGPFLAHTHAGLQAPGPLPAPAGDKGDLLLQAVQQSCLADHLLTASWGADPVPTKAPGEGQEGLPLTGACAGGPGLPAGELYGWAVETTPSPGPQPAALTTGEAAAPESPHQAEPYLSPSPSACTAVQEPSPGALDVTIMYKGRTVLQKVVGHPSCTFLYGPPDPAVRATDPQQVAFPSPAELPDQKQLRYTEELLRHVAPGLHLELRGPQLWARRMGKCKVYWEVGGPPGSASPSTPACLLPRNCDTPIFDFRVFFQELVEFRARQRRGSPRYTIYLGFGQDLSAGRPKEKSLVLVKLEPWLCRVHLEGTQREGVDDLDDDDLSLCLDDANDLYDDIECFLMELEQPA
GACGAATTCAGTTCCGAGACGTGCTAG: 0.577 z-score
TTAGATATCAGGCTGGATTAGTGCTAG: -0.125 z-score
GCCCTTATCCAATCAGAATTGTGCTAG: 1.11 z-score
GACGGTATCGGTTTGGGGACGTGCTAG: 1.94 z-score
TTAGGCATCCTACTGCTTTAGTGCTAG: 0.108 z-score
TTAGCACTGGGGTATCGGTTAGTGCTA: -0.0536 z-score
GACGGACTGCTTTCCCTGACGTGCTAG: 0.764 z-score
GACGGTCTCGGAGTGGGGACGTGCTAG: -0.841 z-score
GACGGTTTCGACTTTCGGGATGTGCTA: 9.28 z-score
TAAGCAAAAATGATTGGTTGGTGCTAG: -0.292 z-score
GACGAACTGAGACCGGAGACGTGCTAG: -0.263 z-score
TCATATAGGTTGTTTCTAACTGTGCTA: 0.716 z-score
TCAGAGATTTTTCTCAAACTGTGCTAG: -0.627 z-score
CAAGTGGAGCCCAGGCCAGAGTGCTAG: -1.3 z-score
GACGGTTTCGGGTATCCGGACGTGCTA: 6.29 z-score
TTAGGTTCCGACACTGGGTTAGTGCTA: 0.23 z-score
GACGGACTCGACACTGGGGACGTGCTA: -0.592 z-score
TTAGGTCTCGGACTGGGGTAGTGCTAG: -0.276 z-score
GACGTTATCGGGTATCGAGACGTGCTA: 0.439 z-score
TTGGGTTTCGACTTTCGGTTAGTGCTA: 9.68 z-score
GACGATTTCAGATTCGAGACGTGCTAG: 1.8 z-score
GACGATTTCCTTATCCTGACGTGCTAG: 2.04 z-score
TTAGAACTGAGAATCGATTAGTGCTAG: -0.713 z-score
TTAGGTATCGGGTTTCGCTTAGTGCTA: 2.75 z-score
GACGGACTACTTATCCTGACGTGCTAG: 0.372 z-score

Series 3
Target: RING finger protein unkempt homolog, zinc fingers 1-6, GST-SBP tag (UNK, Homo sapiens, UniProt Q9C0B0, residues 30-357)
Technique: RNA Bind-n-Seq
Molecule type: RNA
Sample: in vitro
Concentration: not given
Notes: RNA with constant flanks, ends assumed
Relative to: input RNA pool
Direction: higher = stronger binding
Endpoint: bound/input enrichment
Constant ends, left off below: GGGAGUUCUACAGUCCGACGAUC … CAACAGAGGAUUGAGCAUCA
Construct (chain): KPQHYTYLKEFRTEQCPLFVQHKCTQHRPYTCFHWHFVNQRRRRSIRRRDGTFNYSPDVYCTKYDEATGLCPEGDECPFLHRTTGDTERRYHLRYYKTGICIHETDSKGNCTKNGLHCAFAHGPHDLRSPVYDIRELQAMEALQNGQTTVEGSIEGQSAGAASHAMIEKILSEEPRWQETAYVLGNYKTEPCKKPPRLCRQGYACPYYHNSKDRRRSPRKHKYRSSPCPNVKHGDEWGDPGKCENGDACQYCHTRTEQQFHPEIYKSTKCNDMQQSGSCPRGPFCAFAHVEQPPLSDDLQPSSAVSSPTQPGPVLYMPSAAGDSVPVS
CACCGGAGGCAUUUUCCCAACUGUCCAUUUUUGGAAAAUUCUCUAGAAACUCUGAGGUUCCGCAUUUCAAAUCUGAGCAUGCAGACACAUGCAGCUCGAAUGAGAACAUUUAUGUACUGG: 0.0885 ratio
AAUUCAUCCCUCGUGCACAUCCUGUUGUGUUUAAGUCACCAGAUAUUUUGUUCCCAUCAGUUCCGCCCAGAGAUAGACAGUAGAAUGCAAAUACCUCCCUCCCCUAAACUGACUGGACGG: 1.07 ratio
AUGGCCAAUGUGCUUUGUAACAGAGCCAGACUGGUUUCCUAUCUCCCAGGAUUUUGCUCUUCCGUUAAAAGGGUUGUCAAUCCCAAAGCCUUUUCGACUGCAGGAUCAUCAGGUUCGGAU: 0.077 ratio
CAGCACUGCCUCUCUGUUUGGGGAGAUGUAAUGCUGGAAGAUCUUAAGGACUACAUACAUUCCCGAGAUGACAGUGUUGUUCAAAGACAGCCUAGUAAGUAAUUGGUAGAAAUGCCCUUA: 0.128 ratio
UAGAUACCCCAGCGAGUUCUGACUCUGAACUAUAACUUUUUUUUUUUUUAAUGCAAAGACACCCGUCUGAUAAUAUAUACUGUAUUCCCGGAGACAUUUGUGUUACUUACCCUUGGGGGC: 2.71 ratio
UAUUUUUACAGCCACACAAUUCUUGGCAUGUAUUAAGAAAAAAAAAAAUCCCUGUUCAAGCCGUUUUUCCACCUAUCAGCACUGAGUAAAUGCCAUAAAUCCAUUGAAAUGGUCUAAAUG: 0.292 ratio
CCUGGGCUUGCGCUGCUGUGCCAGCCGCAUCCAGGGCUCUCCCCGCUCUCCGCAGGCCUUUACCGAGGCGGCCAGGGCAUGGAGCCCCUUCCAGCAAGAGCCAUGGGCACUCCGGCUCAC: 0.0873 ratio
UGUCCCUCUGCCCCAUCCCUCACAUGGGAUGGUCCCUAGGCCAGGCCUCUCUUCUCUGCCCCGCUACCCCUGUGCUACCUCCCACAUGCUGGGUUCUGGAAUGCAGAGCCUAGGCUCUCU: 0.212 ratio
GACCCAAGUAAUCCAAUUCGAAGACCAAUUUCAGCAGACAGCGCCAUCAUGAAUCCAGCCCGCAAAGUAAUUGCACUGAAAGCUGGGAAAACUCUUCAGAUUUUUAACAUUGAAAUGAAA: 0.469 ratio
CUGGCAUCUGUGAAGAUUUCUAAAGUGAAAUACGUUAUCUGGUCAGCAGACAUGUCACAUGCCGCACUACUAGCCAAACACGCCAUUGUGAUCUGUAACCGCAAACUGGAUGCUUUAUGU: 0.137 ratio
GAGAAGGAAUGGAAACUAGGCCGGUGCAUUUUACGGUUCCCUGAGAUUCUGCAAAAGAUUUCCGAUGACUUAUUUCUCCACACUCUCUGUGAUUAUAUAUAUGAGCUGGCAACUGCUUUC: 0.232 ratio

Series 4
Target: RNA binding protein fox-1 homolog 2, RRM domain, GST-SBP tag (RBFOX2, Homo sapiens, UniProt O43251-10, residues 100-194)
Technique: RNA Bind-n-Seq
Molecule type: RNA
Sample: in vitro
Concentration: 365 nM
Notes: natural RNA segment, single round, ends assumed
Relative to: no-protein control
Direction: higher = stronger binding
Endpoint: RBNS enrichment (R)
Constant ends, left off below: GGGAGUUCUACAGUCCGACGAUC … UGGAAUUCUCGGGUGCCAA
Construct (chain): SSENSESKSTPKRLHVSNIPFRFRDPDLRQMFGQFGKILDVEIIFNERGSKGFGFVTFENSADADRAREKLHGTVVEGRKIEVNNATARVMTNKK
UGAGACUGGCUGAAGUGAAGAAUCUUUGACUGACCAUGUUGUGAUGUGUCGACAGACUCAAGGACACAACCACCUCGACCUGGUCAUGUGGCAUGCCUGUGUAUGUGUGU: 2.91
GCUCUGUGGAAAGGCAGUAUCUCUGGUGGGGACGCUGGUCCACAUCGGCCUCUGCUUGUACAUCCAUCCCACCCAGCAGUCGCCGAACAUCAUAGUCGGGAGCCAUUUCA: 0.198
GUUUUUUUUCUUUCAUUUUUCUCUCAUUCCAUUUCUGCCUUAACUUUAGUUUGUUCACAGGGAGGCAAAGCUGACAUGAACCUUUUGUCGUGGGACUUCAGGCCACAUUG: 0.867
AUUUCAUGACAGUUUCCUCUUUAGGGACAGCUGAGUUGCCAGUUGUGGGAGAGAACCCGGGGCCUGCUUUUCAAGGAUGAGGAGGAGGCAGGAACAGAAGGCAGCUGCUG: 0.556
CAUGCCAGAAGGCCAAAGGACAGCGUGGUGCACACCUUCACACCAAGGACAACUUCAGGAGGGUGCAGUGAGGGCAGCCGUGUGGAGUCUUGCUUUGCAUUUGAUAGUGU: 0.898
AUUAAAUUCUCAGUGAGGCUAUCUUCCUUUUCCCCAGUAACAUUCCUGAAUUUACUGUUAUCUUAUUGUAGUACUUGCAUGACAUGGAUUCCUGAUAUCUGAUGAGAGGU: 3.23
GGCAAACCCUGUUCAGGCUGGCUCGUAGGCCUGCCGCUUUGAUGGAGGAGGUAUUGUAAGCUUUCCAUUUUCUAUAAGAAAAAGGAAAAGUUGAGGGGGGGGCAUUAGUG: 0.634
UCCAUCAGGGUUUCUGCUGUUAGAAACAGGCCAAUUAUCUGCCAGGUGAAGGAAGGCAUCCCUUGUGGGGCAUUUCACUUCUUCCCACUCCCCAAAUAAUGUUACACAUG: 0.35
GUAUUCUUUUUCAACAUGUAGGGCAAGAGGAUGAAGGAAGGGGCUAUCCUGGGACCUCCCCAGCCCAGGAAAAACUGGAAGCCUUCCCCCAGCAAGGCAGAAGCUUGGAG: 0.806
AGGCUCCAUUCCAAAGUGGGAAAGAAAUUCUGCUAGCAUUGUUUAAAUCAGGCAAAAUUUGUUCCUGAAGUUGCUUUUUACCCCAGCAGACAUAAACUGCGAUAGCUUCA: 0.389
CUAGGCUAAAAUUUCAACUGUUUUAGUCAUAGAUUUUUAGCAUCUUUGUUAGAUCAGCAUAUAAUUCAUAUAACUACUUAAGUUUUUAUGAUGUAUCAUCAAUUUUAUUA: 0.457
GUUAUAUAUUUGGCAUAAAAUACGGCUUACGUUGCUUAAGAUUCUCAGGGAUAAACUUCCUUUUGCUAAAUGCAUUCUUUCUGCUUUUAGAAAUGUAGACAUAAACACUC: 1.05
